# Measured values of several laboratories.
# Each line is one published result; not all experiments were run side by side. Values joined by “and” are separate records of one study, mostly repeats; a detail may differ. ± marks the error that the study gave.
# Nuclear receptor subfamily 2 group C member 2 ligand-binding domain: Nuclear receptor subfamily 2 group C member 2, ligand-binding domain (Homo sapiens, UniProt P49116)
# Chain of UniProt P27361 (whole entry, looked up): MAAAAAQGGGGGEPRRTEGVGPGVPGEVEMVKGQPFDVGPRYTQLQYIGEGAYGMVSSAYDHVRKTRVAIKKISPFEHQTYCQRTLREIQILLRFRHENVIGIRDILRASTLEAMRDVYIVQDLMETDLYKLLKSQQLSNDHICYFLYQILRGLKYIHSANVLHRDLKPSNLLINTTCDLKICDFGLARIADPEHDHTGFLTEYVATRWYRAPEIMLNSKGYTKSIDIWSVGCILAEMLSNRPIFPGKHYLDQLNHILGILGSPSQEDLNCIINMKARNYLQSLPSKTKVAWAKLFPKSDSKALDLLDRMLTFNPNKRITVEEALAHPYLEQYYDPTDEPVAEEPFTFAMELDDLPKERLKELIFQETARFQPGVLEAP
# Chain of UniProt P11388 (whole entry, looked up): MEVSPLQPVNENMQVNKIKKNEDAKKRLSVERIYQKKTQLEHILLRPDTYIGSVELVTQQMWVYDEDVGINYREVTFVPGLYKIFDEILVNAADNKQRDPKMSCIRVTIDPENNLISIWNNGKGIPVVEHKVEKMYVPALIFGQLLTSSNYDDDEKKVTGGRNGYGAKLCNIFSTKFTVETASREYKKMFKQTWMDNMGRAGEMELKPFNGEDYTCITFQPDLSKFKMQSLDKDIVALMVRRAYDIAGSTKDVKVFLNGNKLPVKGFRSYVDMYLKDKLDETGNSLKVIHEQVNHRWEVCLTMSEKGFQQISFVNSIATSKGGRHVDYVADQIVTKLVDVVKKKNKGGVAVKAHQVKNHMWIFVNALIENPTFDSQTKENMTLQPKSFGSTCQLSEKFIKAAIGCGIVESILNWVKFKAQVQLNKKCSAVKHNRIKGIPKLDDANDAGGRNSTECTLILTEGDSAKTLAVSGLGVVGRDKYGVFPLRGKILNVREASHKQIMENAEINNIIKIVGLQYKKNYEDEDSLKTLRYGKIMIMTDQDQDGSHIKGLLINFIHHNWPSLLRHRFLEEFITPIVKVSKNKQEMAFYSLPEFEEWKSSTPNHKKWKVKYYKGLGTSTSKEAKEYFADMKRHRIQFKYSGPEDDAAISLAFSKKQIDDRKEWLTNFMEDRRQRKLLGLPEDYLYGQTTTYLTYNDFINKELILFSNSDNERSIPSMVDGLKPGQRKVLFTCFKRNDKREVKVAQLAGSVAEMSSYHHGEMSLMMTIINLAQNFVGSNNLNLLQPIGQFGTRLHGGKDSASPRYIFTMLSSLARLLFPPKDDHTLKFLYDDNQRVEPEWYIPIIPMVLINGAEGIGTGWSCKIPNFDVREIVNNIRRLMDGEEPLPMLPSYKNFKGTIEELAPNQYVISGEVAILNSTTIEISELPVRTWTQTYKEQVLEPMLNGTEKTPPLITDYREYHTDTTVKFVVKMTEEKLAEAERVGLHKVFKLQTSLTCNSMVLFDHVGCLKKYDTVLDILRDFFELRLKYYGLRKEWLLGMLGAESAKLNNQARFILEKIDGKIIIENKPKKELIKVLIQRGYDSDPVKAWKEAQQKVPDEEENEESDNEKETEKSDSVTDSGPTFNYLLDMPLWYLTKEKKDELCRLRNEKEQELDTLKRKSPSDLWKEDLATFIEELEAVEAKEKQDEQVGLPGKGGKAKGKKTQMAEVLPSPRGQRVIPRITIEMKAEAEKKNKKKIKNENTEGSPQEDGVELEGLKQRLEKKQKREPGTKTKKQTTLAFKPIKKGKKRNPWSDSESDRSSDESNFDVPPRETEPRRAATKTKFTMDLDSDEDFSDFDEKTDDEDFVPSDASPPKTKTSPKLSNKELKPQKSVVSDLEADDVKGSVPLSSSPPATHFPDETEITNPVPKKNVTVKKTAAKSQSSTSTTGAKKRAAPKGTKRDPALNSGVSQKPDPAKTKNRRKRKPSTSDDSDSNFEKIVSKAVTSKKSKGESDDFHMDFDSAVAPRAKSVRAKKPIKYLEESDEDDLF
# Chain of UniProt P49116 (whole entry, looked up): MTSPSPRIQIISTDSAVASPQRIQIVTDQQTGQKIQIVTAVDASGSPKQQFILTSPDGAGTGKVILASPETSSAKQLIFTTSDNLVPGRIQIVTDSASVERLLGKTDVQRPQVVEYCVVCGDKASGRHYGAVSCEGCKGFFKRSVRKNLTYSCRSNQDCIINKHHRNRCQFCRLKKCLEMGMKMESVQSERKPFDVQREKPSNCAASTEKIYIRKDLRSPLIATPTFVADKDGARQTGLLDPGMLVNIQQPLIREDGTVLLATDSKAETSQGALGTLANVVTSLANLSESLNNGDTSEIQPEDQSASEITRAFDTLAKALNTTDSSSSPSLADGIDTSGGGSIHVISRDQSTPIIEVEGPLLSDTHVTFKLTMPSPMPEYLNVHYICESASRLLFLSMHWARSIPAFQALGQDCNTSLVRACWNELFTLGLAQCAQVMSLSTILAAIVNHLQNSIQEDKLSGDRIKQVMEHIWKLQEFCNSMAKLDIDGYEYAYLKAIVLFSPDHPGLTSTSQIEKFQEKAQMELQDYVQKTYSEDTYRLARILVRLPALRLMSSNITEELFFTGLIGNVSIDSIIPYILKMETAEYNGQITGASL
# Chain of UniProt Q13639 (whole entry, looked up): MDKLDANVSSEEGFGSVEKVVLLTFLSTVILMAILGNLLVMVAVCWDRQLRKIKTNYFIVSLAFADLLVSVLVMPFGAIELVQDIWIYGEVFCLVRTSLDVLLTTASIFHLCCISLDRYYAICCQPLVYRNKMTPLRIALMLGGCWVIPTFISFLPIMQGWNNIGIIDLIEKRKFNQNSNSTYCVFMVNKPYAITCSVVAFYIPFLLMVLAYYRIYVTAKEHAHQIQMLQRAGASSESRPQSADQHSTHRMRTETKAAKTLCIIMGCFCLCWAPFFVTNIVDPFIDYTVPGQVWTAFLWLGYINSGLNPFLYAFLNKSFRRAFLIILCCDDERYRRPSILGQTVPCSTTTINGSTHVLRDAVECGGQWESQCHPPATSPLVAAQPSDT
# Chain of UniProt P53341 (whole entry, looked up): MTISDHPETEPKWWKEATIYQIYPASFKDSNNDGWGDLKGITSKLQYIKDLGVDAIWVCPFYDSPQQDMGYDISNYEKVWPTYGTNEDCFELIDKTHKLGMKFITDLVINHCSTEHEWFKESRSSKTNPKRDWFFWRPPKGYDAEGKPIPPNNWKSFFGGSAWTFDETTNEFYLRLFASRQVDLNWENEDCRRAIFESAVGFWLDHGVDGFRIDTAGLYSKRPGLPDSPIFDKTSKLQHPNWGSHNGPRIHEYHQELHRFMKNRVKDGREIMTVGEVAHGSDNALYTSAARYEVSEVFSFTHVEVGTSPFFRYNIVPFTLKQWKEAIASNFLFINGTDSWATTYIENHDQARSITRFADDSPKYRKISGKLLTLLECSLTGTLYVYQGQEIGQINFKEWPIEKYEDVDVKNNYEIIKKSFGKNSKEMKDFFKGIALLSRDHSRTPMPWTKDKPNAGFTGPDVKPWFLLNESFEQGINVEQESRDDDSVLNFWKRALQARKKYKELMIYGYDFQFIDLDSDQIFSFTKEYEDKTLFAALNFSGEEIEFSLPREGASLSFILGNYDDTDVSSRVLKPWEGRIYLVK
# Chain of UniProt Q5AP53 (whole entry, looked up): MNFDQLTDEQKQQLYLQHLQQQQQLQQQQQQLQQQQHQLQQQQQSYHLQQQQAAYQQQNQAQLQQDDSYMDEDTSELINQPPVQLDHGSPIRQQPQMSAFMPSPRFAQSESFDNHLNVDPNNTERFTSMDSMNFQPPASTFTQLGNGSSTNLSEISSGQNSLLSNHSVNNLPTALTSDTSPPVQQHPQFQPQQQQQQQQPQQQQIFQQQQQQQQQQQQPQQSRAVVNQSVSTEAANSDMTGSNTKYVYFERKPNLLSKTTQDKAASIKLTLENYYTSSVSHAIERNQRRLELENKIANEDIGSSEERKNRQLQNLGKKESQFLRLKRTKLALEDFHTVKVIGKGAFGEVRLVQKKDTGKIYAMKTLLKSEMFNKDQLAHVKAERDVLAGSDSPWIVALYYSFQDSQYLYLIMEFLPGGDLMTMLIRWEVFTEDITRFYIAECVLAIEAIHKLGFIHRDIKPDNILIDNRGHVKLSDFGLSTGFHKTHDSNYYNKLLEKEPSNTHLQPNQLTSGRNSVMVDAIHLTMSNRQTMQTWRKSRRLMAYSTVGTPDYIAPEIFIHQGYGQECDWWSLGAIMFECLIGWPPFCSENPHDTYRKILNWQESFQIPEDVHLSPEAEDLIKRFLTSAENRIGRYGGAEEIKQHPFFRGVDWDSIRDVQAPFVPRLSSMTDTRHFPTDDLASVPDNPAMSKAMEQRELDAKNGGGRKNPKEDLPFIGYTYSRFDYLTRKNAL
# Chain of UniProt Q8NEZ5 (whole entry, looked up): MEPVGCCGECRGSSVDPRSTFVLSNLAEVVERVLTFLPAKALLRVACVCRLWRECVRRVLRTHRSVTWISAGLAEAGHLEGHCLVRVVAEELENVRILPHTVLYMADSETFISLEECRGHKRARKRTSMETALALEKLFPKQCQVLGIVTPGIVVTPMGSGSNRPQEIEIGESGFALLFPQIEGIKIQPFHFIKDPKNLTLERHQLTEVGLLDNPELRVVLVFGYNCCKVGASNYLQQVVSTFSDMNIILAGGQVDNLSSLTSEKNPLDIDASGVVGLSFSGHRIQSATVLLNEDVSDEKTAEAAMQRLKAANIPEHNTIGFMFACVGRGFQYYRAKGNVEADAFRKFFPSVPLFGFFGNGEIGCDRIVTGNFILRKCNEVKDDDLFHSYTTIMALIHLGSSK
# Chain of UniProt Q9UH17 (whole entry, looked up): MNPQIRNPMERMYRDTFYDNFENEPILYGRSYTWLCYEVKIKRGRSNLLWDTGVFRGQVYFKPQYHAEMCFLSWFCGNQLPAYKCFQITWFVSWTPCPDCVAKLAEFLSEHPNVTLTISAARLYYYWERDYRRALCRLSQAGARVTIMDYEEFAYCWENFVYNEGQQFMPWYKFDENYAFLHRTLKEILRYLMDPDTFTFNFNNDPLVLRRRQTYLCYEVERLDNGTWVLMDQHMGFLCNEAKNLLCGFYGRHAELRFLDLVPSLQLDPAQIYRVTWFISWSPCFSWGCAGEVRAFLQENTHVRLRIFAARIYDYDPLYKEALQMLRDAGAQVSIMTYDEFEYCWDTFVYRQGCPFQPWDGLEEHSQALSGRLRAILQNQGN
Structure (SMILES),target,assay,test system,conditions,how to read,measurement,value
CCC1(O)CCCN(C(=O)c2ccc(-c3ccc(F)c(NC(=O)CCl)c3)cc2)C1 (stereo not shown),"DNA dC->dU-editing enzyme APOBEC-3B, C-terminal domain (Homo sapiens, UniProt Q9UH17)","covalent modifier, intact protein mass spectrometry, measured: adduct +26104 Da",,"125 µM, 1 h, 5-fold molar excess",,protein adduct,0%
C=CC(=O)N1CCC(COCC(=O)N2CCN(c3nc(-c4cnc(N)nc4C(F)F)nc(N4CCOC[C@@H]4C)n3)CC2)CC1,"Tyrosine-protein kinase receptor Tie-1 (TIE1, Homo sapiens, UniProt P35590)",KINOMEscan,,1 µM,,remaining binding,100%
C[C@@H](NCCCc1cccc(C(F)(F)F)c1)c1cccc2ccccc12,Nuclear receptor subfamily 2 group C member 2 ligand-binding domain,SPR imaging,,600 nM,,koff,1.46e-05 s⁻¹
C[C@H](N)C(=O)N[C@@H](CCCNC(=N)N(C)C)C(=O)N[C@H](C(=O)N[C@@H](CCCCN)C(=O)N[C@@H](CCC(N)=O)C(=O)N[C@H](C(=O)N[C@@H](C)C(=O)N[C@@H](CCCNC(=N)N)C(=O)N[C@@H](CCCCN)C(=O)N[C@@H](CO)C(=O)O)[C@@H](C)O)[C@@H](C)O,"Transcriptional regulator ATRX (ATRX, Homo sapiens, UniProt P46100, F284Y/K251R)",isothermal titration calorimetry,,"concentration not given, pH 7.5, 25.0 °C",,binding entropy,7.3 cal/mol/K
CN(C(=O)n1cnc(-c2ccc[n+]([O-])c2)c1)C1CCCCC1,"Fatty-acid amide hydrolase 1 (Faah, Mus musculus, UniProt O08914)","enzyme activity, inhibitor","NMRI mice, brain","oral, 8 h",,ED50,~0.027 mg/kg
Cc1ccc(OC[C@H]2CN(CCN3CCc4ccccc43)CCO2)cn1,"5-hydroxytryptamine receptor 4 (HTR4, Homo sapiens, UniProt Q13639)",radioligand binding,,concentration not given,,inhibition,13.1%
CCCC[C@H]1CN(c2cccc(OC(F)(F)F)c2)C(=O)CN1Cc1cncn1Cc1ccccc1,Cryptococcus neoformans farnesyltransferase,"enzyme activity, inhibitor, fluorescence",,"together with: 1 µM FPP, 0.5 µM dansylated peptide",,IC50,1.9 ± 1.7 µM
N#Cc1ccn2c(-c3ccncc3)c(-c3ccc(F)cc3)nc2c1,"Serine/threonine-protein kinase CBK1 (CBK1, Candida albicans, UniProt Q5AP53)","kinase binding, competitor, MIB/MS competition, measured: CBK1",Candida albicans cell lysate,1 µM,relative to: DMSO,log2 fold change,0.024
O=C(O)[C@@H]1CCCN1c1ncnc2[nH]cnc12 (racemic),"F-box only protein 22, with SKP1 (Homo sapiens, UniProt Q8NEZ5)","binding, affinity selection mass spectrometry",,,relative to: other proteins in batch,fold enrichment,0.87
CC(=O)c1ccc2cc(S(=O)(=O)Nc3ccccc3)ccc2c1,"Signal transducer and activator of transcription 3 (STAT3, Homo sapiens, UniProt P40763)","tyrosine phosphorylation, inhibitor, ELISA, measured: phospho-Tyr705",,,,Hill slope,-0.454
CC[C@@H]1C(=O)OC[C@@H]1Cc1cncn1C.Cl,Nuclear receptor subfamily 2 group C member 2 ligand-binding domain,SPR imaging,,600 nM,,koff,3.01e-06 s⁻¹
O=C1OC(c2ccccc2)=N/C1=C\c1cccc(O)c1,"Alpha-glucosidase MAL12 (MAL12, Saccharomyces cerevisiae S288c, UniProt P53341)","inhibitor, Lineweaver-Burk",,"1600 ppm, together with: pNPG substrate",,Vmax,0.191 mM/min
O=c1nc(SCc2cc(F)cc(C(F)(F)F)c2)nc(SCc2ccc3nc(Cl)ccc3c2)[nH]1,"DNA topoisomerase 2-alpha (TOP2A, Homo sapiens, UniProt P11388)",ATPase activity,,"31.25 µM, together with: ATP 0.1 mM",,ATP hydrolysis rate,0.768 µM/min and 0.415 µM/min
NC(=O)C1=CN([C@@H]2O[C@H](COP(=O)(O)OP(=O)(O)OC[C@H]3O[C@@H](n4cnc5c(N)ncnc54)[C@H](O)[C@@H]3O)[C@@H](O)[C@H]2O)C=CC1,FSP1 F15A mutant,substrate,,together with: 100 µM co-substrate,,Km,8.35 ± 2.15 µM
O=C(O)c1cc2c(c3nc4c(O)cccc4nc13)O[C@@H]1[C@H](O)c3nc4cccc(O)c4nc3C[C@H]21,"Eukaryotic translation initiation factor 4E (EIF4E, Homo sapiens, UniProt P06730)","inhibitor, m7GDP cap pull-down",,concentration not given,,cap binding,inactive
Nc1[nH]nc2nnc(-c3c(-c4ccccc4)nn4ccccc34)cc12,"Mitogen-activated protein kinase 3 (MAPK3, Homo sapiens, UniProt P27361)",ADP-Glo,,"631 nM, together with: MBP substrate",,kinase activity,66.8% and 52.3% and 72.9%
